Published values collected from several papers.
Lines come from different studies, so protocols differ. ± marks the error that the study gave.

`COc1ccc2c(c1)CN(C(=O)CCN1CCC(Cc3ccccc3)CC1)CC[S@@+]2[O-]` has a QT interval of 212 ± 21 ms (telemetry; conscious male beagle dogs; intravenous, 2 mg/kg, 24 h).
Under “QTc interval change”, `CCN1/C(=C/C(C)=O)Sc2ccc(F)cc21` is recorded as 101 ± 2.5% (cynomolgus monkey; oral, 10 mg/kg, 6 h post-dose; baseline: pre-dose).
`CC(C)(C(=O)N1CCOc2c(C#N)cncc2C1)C(F)F`: “share of subjects with TEAE” 16.7% (refers to: skin disorders; healthy humans, both sexes; oral, 30 mg single dose).
`C=CC(=O)NC1CCN(c2ncc3ncnc(Nc4ccc(Oc5ccc6c(c5)ncn6C)c(C)c4)c3n2)CC1` gave a blood-to-plasma ratio of 3.84 (refers to: total radioactivity; healthy male human, whole blood and plasma; oral, 60 mg, 216 h, geometric mean).
`Cc1cc(C)c(CNC(=O)c2cc(Cl)c3c(c2C)O[C@@](C)([C@H]2CC[C@H](N(C)C)CC2)O3)c(=O)[nH]1`: “adenovirus infection grade ≥3” 4.2% (human relapsed/refractory NHL; oral, 200 mg once daily, onset after cycle 1 day 1).
`CN1CCN(C(=O)c2ccc([C@H]3[C@@H](F)[C@@H](F)C[C@@H](F)[C@H]3F)cc2)CC1=O` has a hepatic clearance of 3.9 mL/min/kg (liver microsome stability; human liver microsomes; 1 µM, without NADPH).
Under “incidence of Somnolence”, `NC1(C(=O)N[C@@H](CCO)c2ccc(Cl)cc2)CCN(c2nc[nH]c3nccc2-3)CC1` is recorded as 14.3% (metastatic CRPC patients; 400 mg b.i.d., any grade, treatment-related, with: enzalutamide 160 mg daily).
`[H]/N=C(/N)c1ccc(NCc2nc3cc(C(=O)N(CCC(=O)O)c4ccccn4)ccc3n2C)cc1` has an AUCinf increase of 98% (healthy human, plasma; oral, dose not given, dabigatran etexilate dosed, with: vepdegestrant; baseline: alone).
For `COc1cc2nccc(Oc3ccc(NC(=O)c4cc5c(n(-c6ccccc6)c4=O)CCCC5=O)nc3)c2cc1OC`, “patients with Klebsiella sepsis” read 10% (human, relapsed/refractory AML; oral, dose not given, grade ≥3, any causality, all doses).
The DHEA-S level of `N#Cc1ccc2c(c1)[C@H]1CCCN(C(=O)c3ccc4[nH]cnc4c3)[C@H]1C2` is reported as 7 µmol/L (human, male; 20 mg, day 15).
The remaining compound of `CC(C)Cn1cnc2c(N)nc3ccccc3c21` is reported as 10% (CD-1 mice, liver microsomes; 1 µM, 60 min).
`O=C(Nc1ccc(Cl)cc1)Nc1ccc(Cl)c(Cl)c1` — result for “milk fat partition ratio”: 166 (cow whole milk; 20 nM; baseline: milk fat over skim milk).
With `CSCC[C@H](N)C(=O)N[C@@H](CC(C)C)C(=O)N[C@@H](CCCNC(=N)N)C(=O)N[C@@H](Cc1c[nH]c2ccccc12)C(=O)N[C@@H](CO)C(=O)N[C@@H](CCCNC(=N)N)C(=O)N[C@@H](CCCCN)C(=O)N[C@@H](CC(C)C)C(=O)N1CCC[C@H]1C(=O)N[C@@H](CS)C(=O)N[C@H](C(=O)N[C@@H](CO)C(N)=O)C(C)C` the remaining activity was 2 ± 0.3% (12G5 competition, SUP-T1 cells; human plasma; concentration not given, 8 h).
Under “mean plasma concentration”, `CCN1CCN(Cc2ccc(NC(=O)c3ccc(C)c(NC(=O)c4cncc(-c5cccs5)c4)c3)cc2C(F)(F)F)CC1` is recorded as 0.114 µg/mL (LC-MS/MS; C57BL/6 mouse, plasma; intraperitoneal, 30 mg/kg single dose, 8 h).
For `CCCOc1ccc(NC(=O)CN2CCN(C)CC2)cc1-c1nc(CC)c(CC)c(=O)[nH]1`, “maximal pulse rate increase” read 20.4 bpm (Chinese healthy male subjects; 10 mg, with: alcohol 0.5 g/kg; baseline: baseline).
`CC(C)c1c(C(=O)Nc2ccccc2)c(-c2ccccc2)c(-c2ccc(F)cc2)n1CC[C@@H](O)C[C@@H](O)CC(=O)O`: “share of subjects with adverse events” 8.3% (healthy human subjects; oral, dose not given, treatment-emergent adverse events).
The Vz/F of `Cn1cc(-c2cn3nccc3c(-c3cnn([C@]4(CC#N)C[C@@H](C#N)C4)c3)n2)cn1` is reported as 3220 L (healthy human fed; 200 mg twice daily, day 10).
With `O=C(Cn1ccnc1)Nc1ccc([C@H]2[C@@H](F)[C@@H](F)C[C@@H](F)[C@H]2F)cc1` the hepatic clearance was 3.9 mL/min/kg (human liver microsomes; 1 µM, without NADPH).
`COc1ccnc(C(=O)NC(CO)C(=O)O)c1O` (racemic) has a KFoc of 737 mL/g (soil adsorption; soil; pH 6.9, organic carbon 0.8 %).
For `CCOc1c([C@H](C)n2nc(C)c3c(N)ncnc32)cc(Cl)c(F)c1[C@@H]1CNC(=O)C1`, the ECG observations was 60% (refers to: QTcF change ≤30 ms; previously treated B-cell malignancy; oral, 5 mg once daily, overall population; baseline: baseline).
`Cc1ccc([C@@H]2O[C@H](CO)[C@@H](O)[C@H](O)[C@H]2O)cc1Cc1ccc(-c2ccc(F)cc2)s1` — result for “urinary sodium excretion change”: -17.3 mEq (Japanese type 2 diabetes patients; 200 mg, day 18, 24 h urine collection; baseline: baseline).
`COc1ccc2nccc(N3CCc4c(cc(Cn5ccnc5)cc4-c4cn(C)nc4C(F)(F)F)C3=O)c2c1` has an AUC extrapolated of 0.1% (CD-1 mouse, male, plasma; oral, 50 mg/kg).
`CN[C@H](CC(C)C)C(=O)N[C@H]1C(=O)N[C@@H](CC(N)=O)C(=O)N[C@H]2C(=O)N[C@H]3C(=O)N[C@H](C(=O)N[C@H](C(=O)O)c4cc(O)cc(O)c4-c4cc3ccc4O)[C@H](O)c3ccc(c(Cl)c3)Oc3cc2cc(c3O[C@@H]2O[C@H](CO)[C@@H](O)[C@H](O)[C@H]2O[C@H]2C[C@](C)(N)[C@H](O)[C@H](C)O2)Oc2ccc(cc2Cl)[C@H]1O` gave a half-life ratio of ~5 (guinea pig; intraperitoneal, 15 mg/kg, single dose; baseline: tissue cage fluid over serum).
`C=CC(=O)N1CCC(c2ccc(C(N)=O)c(-c3ccc(Oc4ccccc4)cc3)n2)CC1` — result for “incidence of serious GI necrosis”: 0.9% (CTCAE 4.03; patients with relapsed/refractory MCL; oral, dose not given).
For `O=C(Nc1cnccc1Cl)N1CCN(Cc2ccc3c(c2)OC(F)(F)O3)CC1`, “adverse event incidence” read 0% (refers to: Ecchymosis; human healthy young men; 75 mg, multiple dose).
`C[C@@H](N)C1CCN(S(=O)(=O)c2cccc3cnccc23)CC1` has a TEAE incidence of 40% (healthy volunteers; 150 mg, fed).
`Cc1ccc(O)c(-n2nc3ccccc3n2)c1`: “daily dermal uptake” 1100 ng/kg body weight/day (human, both sexes; topical, dose not given, spray sunscreen, age 3-6 years, mean).
`CN(C(=O)n1cnc(-c2ccc[n+]([O-])c2)c1)[C@H]1CC[C@H](O)CC1` has a tissue concentration of 6.9 ± 3.4 ng/g (rat, cerebellum; oral, 10 mg/kg daily for 5 days, 72 h).
The hepatic clearance of `O=C(NCCc1cccnc1)c1ccc([C@H]2[C@@H](F)[C@@H](F)C[C@@H](F)[C@H]2F)cc1` is reported as 13 mL/min/kg (hepatocyte stability; cryopreserved human hepatocytes; 1 µM).
`OC[C@H]1O[C@@H](c2ccc(F)c(Cc3cc4ccccc4s3)c2)[C@H](O)[C@@H](O)[C@@H]1O`: “hypoglycaemia adverse events” 5% (Japanese type 1 diabetes patients; oral, 25 mg/day; baseline: patients).
`C=CC(=O)NC1CCN(c2ncc3ncnc(Nc4ccc(Oc5ccc6c(c5)ncn6C)c(C)c4)c3n2)CC1`: “adverse events incidence” 0% (refers to: gingival bleeding; human male; oral, dose not given, AEs, treatment-related, on drug, CTCAE).
`O=C(NCCN1CCCC1=O)c1ccc([C@H]2[C@@H](F)[C@@H](F)C[C@@H](F)[C@H]2F)cc1` gave a hepatic clearance of 27 mL/min/kg (liver microsome stability; mouse liver microsomes; 1 µM).
With `Cc1cn(C(=O)c2c(-c3c(Cl)cc(Cl)cc3Cl)noc2C(C)(C)F)c2cccc(/C=C/C(=O)O)c12` the AUC(0-8h) was 62300 ng·h/mL (human patients; 125 mg bid, cycle 8 day 1).
`CNCc1ccc(-c2[nH]c3cc(F)cc4c3c2CCNC4=O)cc1` has a dysgeusia incidence of 11.1% (human patients; oral, 480 mg twice daily, all grades).
With `c1ncc(-c2ccc(C3CCCCC3)cc2)cn1` the hepatic clearance was 44 mL/min/kg (liver microsome stability; rat liver microsomes; 1 µM).
`O=C(COc1ccc(Cl)cc1)NC12CC(c3nnc([C@H]4C[C@@H](OC(F)(F)F)C4)o3)(C1)C2` — result for “treatment-emergent adverse events”: 16.7% (abdominal discomfort; human, both sexes; oral, 400 mg, single ascending dose; baseline: subjects).
`COc1ncc(-c2nc3c(n2C(C)C)[C@H](c2ccc(Cl)cc2)N(c2cc(Cl)cn(C)c2=O)C3=O)c(OC)n1` gave a median half-life of 690 min (human patients, plasma; oral, 20 mg, low-dose arm, cycle 2 day 1).
The hepatic clearance of `O=C(CC1CCOCC1)Nc1ccc(C2CCCCC2)cc1` is reported as 86 mL/min/kg (mouse liver microsomes; 1 µM).
`CC(C)C[C@@H]1NC(=O)[C@H](C)NC(=O)[C@H](Cc2ccccc2)NCc2ccc([nH]2)CNC1=O` gave a -log Pe of 7.72 + 0.21 (PAMPA; 2% lecithin in dodecane; 100 µM, 17 h, pH 6.4, 37 °C).
`CNC(=O)c1ccc(-c2cnc3ncc(Cc4ccc5ncccc5c4)n3n2)cc1F` has an unbound fraction of 0.033 (ultrafiltration; human, plasma; oral, 200 mg, 3 h post-dose, geometric mean).
For `CN1C(=O)[C@@H](NC(=O)c2nnc(Cc3ccccc3)[nH]2)COc2cccnc21`, “TEAE leading to permanent discontinuation” read 0% (phase I single ascending dose; human, male and female; oral, 200 mg, fasted).
Under “dose interruption due to AE”, `C[C@@H](Nc1cc(F)cc(F)c1)c1cc(C(=O)N(C)C)cc2c(=O)cc(N3CCOCC3)oc12` is recorded as 33.3% (advanced solid tumour patients; oral, 60 mg twice daily, continuous monotherapy).
`Cc1nc(-c2ccc(OCC(C)C)c(C#N)c2)sc1C(=O)O`: “subjects with serious adverse events” 0% (healthy Chinese subjects, fasted; oral, 40 mg single dose).
Under “treatment-emergent adverse events”, `O=C(Nc1nc2cccc(-c3ccc(CN4CCS(=O)(=O)CC4)cc3)n2n1)C1CC1` is recorded as 5% (refers to: pain in extremity; human rheumatoid arthritis patients; oral, 300 mg once daily, 4 weeks, regardless of relatedness).
For `C[C@H]1CN(C(=O)CC#N)[C@]12CCN(c1ncnc3[nH]ccc13)C2`, “subjects with Paraesthesia” read 0% (healthy human; oral, 12 mg single).
The hepatic clearance of `O=C(COCC(F)F)Nc1ccc(C2CCCCC2)cc1` is reported as 49 mL/min/kg (hepatocyte stability; cryopreserved rat hepatocytes; 1 µM).
`Cl.[2H]C([2H])([2H])CC(=O)c1cnc(NC(=O)C2CC2)cc1Nc1cccc(-c2ncn(C([2H])([2H])[2H])n2)c1OC` has a CL/F of 12.7 L/h (geometric mean; human; 10 mg once daily, day 1, fasted, liquid, multiple dose).
`C=CC(=O)Nc1cc(Nc2ncc(C(=O)OC(C)C)c(-c3cn(C)c4ccccc34)n2)c(OC)cc1N(C)CCN(C)C` has a tissue/plasma ratio of 1.49 ± 0.71 (male Han Wistar rat, brain; intravenous infusion, 2 µmol/kg/h, 4 h; baseline: plasma).
The recovery of `C=CC(=O)Nc1cc(Nc2nccc(-c3cn(C)c4ccccc34)n2)c(OC)cc1N(C)CCN(C)C` is reported as 91.9% (storage stability; human dried blood spots; 72 h, -80 °C, LLOQ level).
The hepatic clearance of `CN(Cc1cccnc1)C(=O)c1ccc(C2CCCCC2)cc1` is reported as 38 mL/min/kg (liver microsome stability; cynomolgus liver microsomes; 1 µM).
With `Cc1c(C(=O)O)ccc2c3n(nc12)[C@@H]1[C@H](C3)N(CC2CC2)[C@@]2(C(=O)Nc3cc(Cl)ccc32)[C@H]1c1cccc(Cl)c1F` the unbound AUC(0-inf) was 128 nmol·h/L (CD1 mouse, plasma; po, 1.5 mg/kg).
With `C=CCn1c(=O)c2cnc(Nc3ccc(N4CCN(C)CC4)cc3)nc2n1-c1cccc(C(C)(C)O)n1` the AUC(0-10 h) was 6.91 µM·h (human patients; oral, 175 mg twice daily, day 17, cycle 1, with: durvalumab 1500 mg iv).
For `CCO[C@H]1CCN(Cc2c(OC)cc(C)c3[nH]ccc23)[C@H](c2ccc(C(=O)O)cc2)C1`, the unbound AUC0–12 was 3230 ng·h/mL (human healthy controls, plasma; oral, 200 mg single dose, mean).
With `Cc1nc2ccc(F)cc2n1-c1nc(N)c(F)c(Nc2ccc(C(F)(F)F)cc2)n1` the dose-normalized Cmax was 6.3 ng/mL/mg (human patients, plasma; oral, 200 mg twice weekly, cycles 1 and 2 pooled).
`O=C([O-])CN1CCN(CC(=O)[O-])CCN([C@H](CO)[C@H](O)CO)CCN(CC(=O)[O-])CC1.[Gd+3]` (racemic) has a Gd concentration of 1.2 nmol/g (ICP-MS; rat, femur epiphysis; intravenous, 0.6 mmol Gd/kg, 1 week).
For `CCn1ncc2c1-c1cnc(N)c(c1)O[C@H](C)c1cc(F)ccc1-c1nn(C)nc1C2`, “unbound plasma trough concentration” read 264 ± 37 nM (female athymic nude mice, sample B PDX; oral, 15 mg/kg twice daily for 21 days, 12 h).
Under “TEAE decreased neutrophil”, `O=C(O)CCC(=O)O.[2H]C([2H])([2H])Oc1cc(C)c2[nH]ccc2c1CN1CC[C@@H](C2CC2)C[C@H]1c1ccc(C(=O)O)cc1` is recorded as 0% (healthy Chinese subjects; 100 mg, single ascending dose).
